Measurements collected from several papers.
Numbered parts are unrelated; each lists some results of a single study.
UniProt P22455, sequence (whole entry, looked up): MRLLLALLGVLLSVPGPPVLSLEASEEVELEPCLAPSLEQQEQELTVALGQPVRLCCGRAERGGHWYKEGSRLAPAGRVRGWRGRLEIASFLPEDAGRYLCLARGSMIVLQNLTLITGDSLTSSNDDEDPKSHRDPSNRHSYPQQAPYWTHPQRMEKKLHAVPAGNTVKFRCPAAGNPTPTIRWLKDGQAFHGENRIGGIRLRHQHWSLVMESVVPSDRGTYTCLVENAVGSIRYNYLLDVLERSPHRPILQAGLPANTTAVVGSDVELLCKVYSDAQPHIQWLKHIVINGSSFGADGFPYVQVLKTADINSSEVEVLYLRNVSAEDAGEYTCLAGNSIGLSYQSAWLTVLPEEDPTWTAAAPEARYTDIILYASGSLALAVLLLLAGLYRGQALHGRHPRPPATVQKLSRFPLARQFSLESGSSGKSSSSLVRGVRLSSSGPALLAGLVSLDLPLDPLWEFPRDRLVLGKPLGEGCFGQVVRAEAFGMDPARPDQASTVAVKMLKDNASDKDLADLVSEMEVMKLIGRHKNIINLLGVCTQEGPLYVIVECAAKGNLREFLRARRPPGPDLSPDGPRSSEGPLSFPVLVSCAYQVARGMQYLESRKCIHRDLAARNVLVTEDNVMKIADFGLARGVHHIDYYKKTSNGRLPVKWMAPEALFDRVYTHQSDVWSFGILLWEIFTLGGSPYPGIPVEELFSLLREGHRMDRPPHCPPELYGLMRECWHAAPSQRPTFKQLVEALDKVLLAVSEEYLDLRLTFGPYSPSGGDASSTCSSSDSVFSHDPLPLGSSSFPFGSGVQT
UniProt Q9UQM7, sequence (whole entry, looked up): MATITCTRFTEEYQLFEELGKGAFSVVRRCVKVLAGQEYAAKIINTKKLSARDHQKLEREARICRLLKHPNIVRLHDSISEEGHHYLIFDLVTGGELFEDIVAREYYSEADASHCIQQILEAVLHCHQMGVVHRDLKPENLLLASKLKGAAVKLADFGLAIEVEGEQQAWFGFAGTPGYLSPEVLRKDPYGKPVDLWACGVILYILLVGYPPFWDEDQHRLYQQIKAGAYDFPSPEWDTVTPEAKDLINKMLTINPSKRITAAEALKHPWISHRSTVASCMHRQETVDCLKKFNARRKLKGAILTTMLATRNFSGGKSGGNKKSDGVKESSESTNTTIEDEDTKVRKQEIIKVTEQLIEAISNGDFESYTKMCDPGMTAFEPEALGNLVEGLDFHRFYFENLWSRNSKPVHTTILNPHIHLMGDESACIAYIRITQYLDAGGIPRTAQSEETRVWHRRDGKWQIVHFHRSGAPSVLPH
UniProt Q15569, sequence (whole entry, looked up): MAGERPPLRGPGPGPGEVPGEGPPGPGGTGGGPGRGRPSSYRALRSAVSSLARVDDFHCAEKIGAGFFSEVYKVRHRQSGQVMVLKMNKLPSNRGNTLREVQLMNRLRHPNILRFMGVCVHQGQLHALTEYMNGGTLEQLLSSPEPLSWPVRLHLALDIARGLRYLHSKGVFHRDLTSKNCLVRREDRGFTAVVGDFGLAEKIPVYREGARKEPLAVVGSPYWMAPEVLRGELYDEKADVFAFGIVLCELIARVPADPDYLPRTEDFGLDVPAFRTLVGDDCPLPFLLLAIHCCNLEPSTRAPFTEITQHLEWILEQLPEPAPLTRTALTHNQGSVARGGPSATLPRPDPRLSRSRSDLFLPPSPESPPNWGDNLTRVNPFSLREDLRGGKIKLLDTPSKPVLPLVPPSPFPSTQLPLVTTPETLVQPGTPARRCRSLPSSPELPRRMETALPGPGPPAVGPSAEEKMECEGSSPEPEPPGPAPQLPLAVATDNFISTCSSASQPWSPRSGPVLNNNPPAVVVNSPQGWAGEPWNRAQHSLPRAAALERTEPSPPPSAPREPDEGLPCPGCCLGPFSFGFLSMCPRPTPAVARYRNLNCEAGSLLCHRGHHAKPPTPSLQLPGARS
UniProt P10721, sequence (whole entry, looked up): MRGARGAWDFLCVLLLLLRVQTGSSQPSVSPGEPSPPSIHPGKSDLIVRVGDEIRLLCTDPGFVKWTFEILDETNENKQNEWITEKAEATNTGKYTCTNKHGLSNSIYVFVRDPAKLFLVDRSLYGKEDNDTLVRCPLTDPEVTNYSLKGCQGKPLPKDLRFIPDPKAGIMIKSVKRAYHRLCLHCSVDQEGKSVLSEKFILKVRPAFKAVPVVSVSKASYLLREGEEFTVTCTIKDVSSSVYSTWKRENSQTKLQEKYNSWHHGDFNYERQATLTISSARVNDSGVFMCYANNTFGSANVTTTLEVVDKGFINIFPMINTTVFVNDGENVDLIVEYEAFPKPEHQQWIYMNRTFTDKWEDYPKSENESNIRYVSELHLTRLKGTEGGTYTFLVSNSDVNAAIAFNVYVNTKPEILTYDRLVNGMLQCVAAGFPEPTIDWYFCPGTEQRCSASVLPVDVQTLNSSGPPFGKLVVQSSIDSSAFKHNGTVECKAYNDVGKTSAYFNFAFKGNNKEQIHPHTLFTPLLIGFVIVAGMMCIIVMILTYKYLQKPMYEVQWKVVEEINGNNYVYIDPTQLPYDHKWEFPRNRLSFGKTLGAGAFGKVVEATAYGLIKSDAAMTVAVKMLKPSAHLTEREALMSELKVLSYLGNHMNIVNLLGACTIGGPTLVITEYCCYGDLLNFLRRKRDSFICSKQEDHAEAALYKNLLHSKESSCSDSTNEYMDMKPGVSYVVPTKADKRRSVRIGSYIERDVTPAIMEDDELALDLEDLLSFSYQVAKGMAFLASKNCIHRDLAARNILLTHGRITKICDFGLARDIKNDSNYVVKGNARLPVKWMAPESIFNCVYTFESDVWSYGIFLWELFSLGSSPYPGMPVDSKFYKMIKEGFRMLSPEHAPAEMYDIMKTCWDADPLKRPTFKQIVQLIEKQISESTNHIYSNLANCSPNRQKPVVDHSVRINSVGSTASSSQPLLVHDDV
UniProt Q7L7X3, sequence (whole entry, looked up): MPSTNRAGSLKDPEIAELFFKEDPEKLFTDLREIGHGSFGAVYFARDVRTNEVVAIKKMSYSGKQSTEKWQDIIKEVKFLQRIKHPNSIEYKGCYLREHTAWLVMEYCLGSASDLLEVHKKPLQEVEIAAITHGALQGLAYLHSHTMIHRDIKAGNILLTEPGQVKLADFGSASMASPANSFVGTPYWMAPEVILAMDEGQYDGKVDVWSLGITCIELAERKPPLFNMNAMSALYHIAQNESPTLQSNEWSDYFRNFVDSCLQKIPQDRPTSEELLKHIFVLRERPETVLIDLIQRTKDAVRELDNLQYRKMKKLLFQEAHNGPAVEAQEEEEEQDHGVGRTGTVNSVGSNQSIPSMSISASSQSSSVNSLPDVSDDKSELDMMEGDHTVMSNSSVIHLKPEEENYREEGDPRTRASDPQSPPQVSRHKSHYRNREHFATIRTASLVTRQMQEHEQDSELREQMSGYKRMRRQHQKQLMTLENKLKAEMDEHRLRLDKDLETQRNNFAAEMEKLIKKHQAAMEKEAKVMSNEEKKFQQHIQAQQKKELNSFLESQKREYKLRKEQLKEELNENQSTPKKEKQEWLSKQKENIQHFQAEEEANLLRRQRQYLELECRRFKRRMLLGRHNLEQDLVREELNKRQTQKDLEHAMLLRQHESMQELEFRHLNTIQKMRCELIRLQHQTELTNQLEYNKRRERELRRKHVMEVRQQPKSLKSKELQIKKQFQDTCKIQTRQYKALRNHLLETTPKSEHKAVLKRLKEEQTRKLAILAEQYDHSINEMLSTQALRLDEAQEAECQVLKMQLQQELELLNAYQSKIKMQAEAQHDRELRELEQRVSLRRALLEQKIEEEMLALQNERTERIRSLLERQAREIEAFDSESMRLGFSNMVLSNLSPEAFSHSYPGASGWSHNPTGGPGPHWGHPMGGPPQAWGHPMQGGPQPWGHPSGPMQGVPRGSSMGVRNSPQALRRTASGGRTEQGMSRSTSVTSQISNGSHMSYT

Series 1 — observed: cell-free assay; method: competition with immobilised ligand; concentration: 1 µM
Compound: O=C(O)c1cc(-c2ccc(C3CCNCC3)cc2)c2ccc(-c3ccc(C(F)(F)F)cc3)cc2c1
It gave 100% for remaining binding (LATS2 (Homo sapiens, UniProt Q9NRM7)).
It gave 100% for remaining binding (FGFR4 (Homo sapiens, UniProt P22455)).
NTRK2 (Homo sapiens, UniProt Q16620) — remaining binding: 100%.
The remaining binding was 93% (CDKL1 (Homo sapiens, UniProt Q00532)).
The remaining binding was 83% (CSNK1A1 (Homo sapiens, UniProt P48729)).
For PIK3C2B (Homo sapiens, UniProt O00750): remaining binding read 100%.
It gave 100% for remaining binding (KIT (Homo sapiens, UniProt P10721)).
It gave 100% for remaining binding (Tyrosine-protein kinase ABL1, phosphorylated (ABL1, Homo sapiens, UniProt P00519, M351T)).
For ERBB3 (Homo sapiens, UniProt P21860): remaining binding read 85%.
It gave 100% for remaining binding (DCLK3 (Homo sapiens, UniProt Q9C098)).
MAP3K11 (Homo sapiens, UniProt Q16584) — remaining binding: 100%.
For Ribosomal protein S6 kinase alpha-3, N-terminal kinase domain (RPS6KA3, Homo sapiens, UniProt P51812): remaining binding read 100%.
For SBK3 (Homo sapiens, UniProt P0C264): remaining binding read 75%.
For Tyrosine-protein kinase ABL1, phosphorylated (ABL1, Homo sapiens, UniProt P00519, Q252H): remaining binding read 90%.
It gave 100% for remaining binding (YES1 (Homo sapiens, UniProt P07947)).
The remaining binding was 100% (CIT (Homo sapiens, UniProt O14578)).
It gave 100% for remaining binding (TAOK1 (Homo sapiens, UniProt Q7L7X3)).
The remaining binding was 100% (NLK (Homo sapiens, UniProt Q9UBE8)).
For TNIK (Homo sapiens, UniProt Q9UKE5): remaining binding read 100%.
It gave 100% for remaining binding (MET (Homo sapiens, UniProt P08581)).
RIPK1 (Homo sapiens, UniProt Q13546) — remaining binding: 100%.
The remaining binding was 100% (Ribosomal protein S6 kinase alpha-4, C-terminal kinase domain (RPS6KA4, Homo sapiens, UniProt O75676)).
For PIKFYVE (Homo sapiens, UniProt Q9Y2I7): remaining binding read 100%.
For CAMK2A (Homo sapiens, UniProt Q9UQM7): remaining binding read 100%.
For Tyrosine-protein kinase ABL1, non-phosphorylated (ABL1, Homo sapiens, UniProt P00519, H396P): remaining binding read 62%.

Series 2 — mode: inhibitor; concentration: 1 µM
Structure (SMILES): CC#CC(=O)N1CCC[C@H]1c1nc(-c2ccc(C(=O)Nc3ccccn3)cc2)c2c(N)nccn12
For Mast/stem cell growth factor receptor Kit, autoinhibited (KIT, Homo sapiens, UniProt P10721); enzyme activity: inhibition read 3%.
The inhibition was 29% (EIF2AK2 (Homo sapiens, UniProt P19525); enzyme activity).
It gave 7% for inhibition (CDK11A (Homo sapiens, UniProt Q9UQ88); enzyme activity).
The inhibition was 0% (CAMK2D (Homo sapiens, UniProt Q13557); enzyme activity).
It gave 3% for inhibition (EGFR (Homo sapiens, UniProt P00533, del747-750/T751S); enzyme activity).
The inhibition was 4% (PIP4K2B (Homo sapiens, UniProt P78356); enzyme activity).
For INSRR (Homo sapiens, UniProt P14616); enzyme activity: inhibition read 4%.
TAOK1 (Homo sapiens, UniProt Q7L7X3); enzyme activity — inhibition: 0%.
It gave 2% for inhibition (CSNK1D (Homo sapiens, UniProt P48730); enzyme activity).
It gave 15% for inhibition (TESK1 (Homo sapiens, UniProt Q15569); enzyme activity).
For MATK (Homo sapiens, UniProt P42679); enzyme activity: inhibition read 26%.
For CAMK2A (Homo sapiens, UniProt Q9UQM7); enzyme activity: inhibition read 0%.
For PRKCH (Homo sapiens, UniProt P24723); enzyme activity: inhibition read 9%.
For MAP2K1 (Homo sapiens, UniProt Q02750); enzyme activity: inhibition read 20%.
The inhibition was 34% (Ribosomal protein S6 kinase alpha-6, N-terminal kinase domain (RPS6KA6, Homo sapiens, UniProt Q9UK32)).
For RIPK4 (Homo sapiens, UniProt P57078); enzyme activity: inhibition read 3%.
TRPM6 (Homo sapiens, UniProt Q9BX84) — inhibition: 12%.
The inhibition was 10% (FLT3 (Homo sapiens, UniProt P36888, F691L/ITD); enzyme activity).
It gave 10% for inhibition (MAP3K9 (Homo sapiens, UniProt P80192); enzyme activity).
For FGFR4 (Homo sapiens, UniProt P22455); enzyme activity: inhibition read 0%.

Series 3 — observed: enzyme activity; mode: inhibitor; concentration: 0.5 µM; relative to: control
Target: Ephrin type-A receptor 7 (EPHA7, Homo sapiens, UniProt Q15375)
UniProt Q15375, sequence (whole entry, looked up): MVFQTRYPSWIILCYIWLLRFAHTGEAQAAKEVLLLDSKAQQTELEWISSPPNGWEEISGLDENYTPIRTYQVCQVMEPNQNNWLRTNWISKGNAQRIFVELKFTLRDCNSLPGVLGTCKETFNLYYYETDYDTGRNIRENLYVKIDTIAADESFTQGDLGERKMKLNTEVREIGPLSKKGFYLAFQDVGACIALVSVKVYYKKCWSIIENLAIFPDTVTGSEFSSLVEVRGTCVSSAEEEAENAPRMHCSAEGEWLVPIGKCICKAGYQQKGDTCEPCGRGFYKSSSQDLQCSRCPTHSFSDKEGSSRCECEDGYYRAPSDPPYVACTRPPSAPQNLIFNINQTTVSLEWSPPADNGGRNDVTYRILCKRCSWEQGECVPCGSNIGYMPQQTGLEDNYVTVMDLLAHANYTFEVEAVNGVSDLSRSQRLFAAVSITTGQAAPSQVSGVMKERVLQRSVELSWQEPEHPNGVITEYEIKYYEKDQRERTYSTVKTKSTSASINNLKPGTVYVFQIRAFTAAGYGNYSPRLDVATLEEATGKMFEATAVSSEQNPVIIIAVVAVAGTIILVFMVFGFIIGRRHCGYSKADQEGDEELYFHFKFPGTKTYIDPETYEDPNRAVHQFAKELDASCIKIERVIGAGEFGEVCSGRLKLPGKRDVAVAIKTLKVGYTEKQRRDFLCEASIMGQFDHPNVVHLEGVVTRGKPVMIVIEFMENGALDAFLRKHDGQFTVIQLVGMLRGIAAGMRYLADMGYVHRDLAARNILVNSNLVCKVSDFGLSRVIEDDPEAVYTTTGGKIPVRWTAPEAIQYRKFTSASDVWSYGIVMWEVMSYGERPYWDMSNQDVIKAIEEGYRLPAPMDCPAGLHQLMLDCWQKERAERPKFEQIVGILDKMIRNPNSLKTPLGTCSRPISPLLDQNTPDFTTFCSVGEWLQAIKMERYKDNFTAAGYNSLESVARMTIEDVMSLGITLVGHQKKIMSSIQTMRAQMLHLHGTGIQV
`c1cc(-c2cnn3cc(-c4ccc(OCCN5CCCCC5)cc4)cnc23)ccn1` has a remaining activity of 79.8%.
`O=Nc1c(-c2c(O)[nH]c3ccccc23)[nH]c2ccccc12` has a remaining activity of 89.3%.
With `N#C/C(=C(/N)SC1C=CC=CC1)c1cccc(C(O)c2ccncc2)c1` (centres unmarked) the remaining activity was 105%.
`Nc1nc(Nc2ccc(S(N)(=O)=O)cc2)nn1C(=S)Nc1c(F)cccc1F` has a remaining activity of 14.2%.
`C[C@@H](N)[C@H]1CC[C@H](C(=O)Nc2ccncc2)CC1` has a remaining activity of 88.9%.
The remaining activity of `O=c1c(-c2ccc(F)cc2)c(-c2ccncc2)[nH]n1-c1ccc(Cl)cc1` is reported as 98.5%.
`O=C1NC(=O)/C(=C/c2ccc3c(c2)OC(F)(F)O3)S1` gave a remaining activity of 98.7%.
The remaining activity of `CNc1cc2c(Nc3cccc(Br)c3)ncnc2cn1` is reported as 94.6%.
The remaining activity of `N#CC(c1ccnc(NCCc2cccnc2)n1)c1nc2ccccc2s1` (centres unmarked) is reported as 99.4%.
For `O=C1c2ccccc2-c2nc3nnnn3nc21`, the remaining activity was 81.9%.
`NC(=O)c1ccc(-c2nc(-c3ccc4c(c3)OCCO4)c(-c3ccccn3)[nH]2)cc1` gave a remaining activity of 96.5%.
`CCN(CC)CCCCN1c2ccccc2Oc2ccc(Cl)cc21` gave a remaining activity of 102%.
`COc1cc2c(N3CCN(C(=O)Nc4ccc(OC(C)C)cc4)CC3)ncnc2cc1OCCCN1CCCCC1` has a remaining activity of 97.5%.
`NC(=O)c1cccc(-c2cc(Nc3ccc(OC(F)(F)F)cc3)ncn2)c1` has a remaining activity of 99.1%.
`CC(C)N(CCC(=O)c1ccc2ccccc2c1)Cc1ccccc1` gave a remaining activity of 106%.
`Clc1ccc(Nc2nnc(Cc3ccncc3)c3ccccc23)cc1` has a remaining activity of 90.5%.
The remaining activity of `COc1cc2c(Nc3ccc(Br)cc3F)ncnc2cc1OCC1CCN(C)CC1` is reported as 31.8%.
`O=C(c1ccccc1)c1ccc(N2CCOCC2)cc1O` has a remaining activity of 98.3%.
With `CCCCc1c(-c2ccc(O)cc2)[nH]c2nccnc12` the remaining activity was 89%.
With `CC(C)(C)c1nc2c3cc[nH]c(=O)c3c3cc(F)ccc3c2[nH]1` the remaining activity was 96%.
For `FC(F)(F)c1ccc(/C=C/c2nc(COc3ccc(CCCCn4ccnn4)cc3)co2)cc1`, the remaining activity was 95.2%.
The remaining activity of `CC(C)n1cnc2c(Nc3cccc(Cl)c3)nc(NCCO)nc21` is reported as 87.1%.
The remaining activity of `O=C(O)/C=C/c1cc(Br)c(Br)c(Br)c1Br` is reported as 94.1%.

Series 4 — concentration: 1 µM
SMILES: CN1CCN(C(=O)c2ccc(NC(=O)Nc3ccc(N(C)c4ccnc(Nc5ccc(CS(C)(=O)=O)cc5)n4)cc3)cc2)CC1
It gave 67% for remaining binding (PAK5 (Homo sapiens, UniProt Q9P286); competitive binding panel, item: PAK7; relative to: vehicle).
The remaining binding was 71% (STK35 (Homo sapiens, UniProt Q8TDR2); competitive binding panel; relative to: vehicle).
For PIK3C3 (Homo sapiens, UniProt Q8NEB9); competitive binding panel, item: VPS34; relative to: vehicle: remaining binding read 74%.
The remaining binding was 50% (BTK (Homo sapiens, UniProt Q06187); competitive binding panel; relative to: vehicle).
The remaining binding was 4.3% (EPHB6 (Homo sapiens, UniProt O15197); competitive binding panel; relative to: vehicle).
The remaining binding was 100% (TESK1 (Homo sapiens, UniProt Q15569); competitive binding panel; relative to: vehicle).
TSSK3 (Homo sapiens, UniProt Q96PN8); competitive binding panel; relative to: vehicle — remaining binding: 75%.
For HIPK3 (Homo sapiens, UniProt Q9H422); competitive binding panel; relative to: vehicle: remaining binding read 71%.
For NTRK1 (Homo sapiens, UniProt P04629); competitive binding; TRKA: remaining binding read 7.1%.
For FES (Homo sapiens, UniProt P07332); competitive binding panel; relative to: vehicle: remaining binding read 67%.
For Aurora kinase C (AURKC, Homo sapiens, UniProt Q9UQB9); competitive binding panel; relative to: vehicle: remaining binding read 0.2%.
It gave 100% for remaining binding (CHEK1 (Homo sapiens, UniProt O14757); competitive binding panel; relative to: vehicle).
EIF2AK1 (Homo sapiens, UniProt Q9BQI3); competitive binding panel; relative to: vehicle — remaining binding: 100%.
It gave 17% for remaining binding (ROCK1 (Homo sapiens, UniProt Q13464); competitive binding panel; relative to: vehicle).
It gave 100% for remaining binding (DAPK2 (Homo sapiens, UniProt Q9UIK4); competitive binding panel; relative to: vehicle).
It gave 100% for remaining binding (RPS6KA5 (Homo sapiens, UniProt O75582); competitive binding scan; N-terminal kinase domain 1).
MAP3K1 (Homo sapiens, UniProt Q13233); competitive binding panel; relative to: vehicle — remaining binding: 83%.
For Myosin-IIIb (MYO3B, Homo sapiens, UniProt Q8WXR4); competitive binding panel; relative to: vehicle: remaining binding read 23%.
